# Published values pooled from the literature.
# Compare with care: the assays were run in different laboratories. “And” joins repeats or separate records; there may be more than shown. Numbers after ± are the reported error.
SMILES,test,system,setting,plasma concentration
CSc1cc(Oc2ccnc3[nH]c(=O)cnc23)ccc1NC(=O)Nc1cc(C(C)(C)C)nn1-c1ccccc1,,"nude mouse, female, tumor","oral, 20 mg/kg, 1 h after last dose",7.07 µM and 6.73 µM and 6.16 µM and 4.99 µM and 6.17 µM
Cc1cc([C@H]2C[C@H]3[C@@H](C)SC(N)=N[C@@]3(c3ccc(F)cc3F)CO2)on1,,"male 129/SVE mouse, plasma","subcutaneous, 50 mg/kg, 3 h",3.77 µM
CCN1CCN(Cc2ccc(NC(=O)c3ccc(C)c(NC(=O)c4cncc(-c5cccs5)c4)c3)cc2C(F)(F)F)CC1,LC-MS/MS,"C57BL/6 mouse, plasma","intraperitoneal, 20 mg/kg single dose, 8 h",59 ng/mL and 72 ng/mL and 49 ng/mL
CCCCCN1C[C@H](O)[C@@H](O)[C@H](O)[C@@H]1CO,LC-MS/MS,"mouse Hexb-/- male, plasma","30 mg/kg/day, arithmetic mean",230 ng/mL
CC(C)(C)c1cc(NC(=O)Nc2ccc(Oc3ccnc4[nH]c(=O)cnc34)cc2F)n(-c2ccccc2)n1,,"NSG mouse, female, tumor","oral, 20 mg/kg, 1 h after last dose",15.1 µM and 4.08 µM and 5.8 µM and 2.52 µM and 7.65 µM
CC(=O)NCc1cc2c(cc1F)C(=O)N(C1CCC(=O)NC1=O)C2 (stereo not drawn),,"CD-1 mouse, male","oral, 10 mg/kg parent drug, 0.67 h",5.1 ± 0.3 ng/mL
CC(C)n1ncc2c(C(=O)NCC3(C)CNC3)cc(C3CC3)nc21,,"mouse BALB/c female, plasma","intraperitoneal, 50 mg/kg, 1 h",1640 ng/mL and 2820 ng/mL and 1750 ng/mL and 2190 ng/mL
Cc1c(C(=O)O)ccc2c3n(nc12)[C@@H]1[C@H](C3)N(CC2CC2)[C@@]2(C(=O)Nc3cc(Cl)ccc32)[C@H]1c1cccc(Cl)c1F,,"female BALB/c nude mouse, SJSA-1 xenograft, plasma","oral, 2 mg/kg once daily, 4 h",2.18 µM
C[C@@H](O)[C@H]1C(=O)N2C(C(=O)O)=C(S[C@@H]3CN[C@H](C(=O)N(C)C)C3)[C@H](C)[C@H]12,,"BALB/c mouse, male, plasma","intraperitoneal, 100 mg/kg, 4 h",17800 ng/mL
Cc1cc([C@H]2C[C@H]3[C@@H](CF)SC(N)=N[C@@]3(c3ccc(F)cc3F)CO2)on1,,"male 129/SVE wild-type mouse, plasma","subcutaneous, 30 mg/kg, 5 h",0.101 µM
c1ccc(-c2nc(N3CCC(c4ccccn4)C3)c3ccccc3n2)nc1 (stereo not drawn),,"mouse, Balb/c female, plasma","oral, 12.5 mg/kg, 8 h, mean, with: aminobenzotriazole pretreatment",1630 ng/mL
c1csc(CNc2cc[nH]n2)c1,,"mouse, CD-1, male, plasma","oral, 20 mg/kg as HCl salt, 4 h",0.016 µM
Cc1coc([C@H]2C[C@H]3[C@@H](CF)SC(N)=N[C@@]3(c3ccc(F)cc3F)CO2)n1,,"male 129/SVE mouse, plasma","subcutaneous, 80 mg/kg, 5 h",0.227 µM
O=C1CCC(N2Cc3cc(CO)c(F)cc3C2=O)C(=O)N1 (stereo not drawn),,"CD-1 mouse, male","oral, 10 mg/kg parent drug, 4 h",2.5 ng/mL
CNC(=O)c1cc2c(Oc3ccc(NC(=O)C4(C(=O)Nc5ccc(F)cc5)CC4)cc3)ccnc2cc1OC,LC-MS/MS,"mouse, NCI-H441 xenograft, plasma","oral, 10 mg/kg once daily for 14 days, 4 h",9.71 µM

# Repeated from above:
SMILES,test,system,setting,plasma concentration
CCN1CCN(Cc2ccc(NC(=O)c3ccc(C)c(NC(=O)c4cncc(-c5cccs5)c4)c3)cc2C(F)(F)F)CC1,LC-MS/MS,"C57BL/6 mouse, plasma","intraperitoneal, 20 mg/kg single dose, 8 h",59 ng/mL and 72 ng/mL and 49 ng/mL
CCCCCN1C[C@H](O)[C@@H](O)[C@H](O)[C@@H]1CO,LC-MS/MS,"mouse Hexb-/- male, plasma","30 mg/kg/day, arithmetic mean",230 ng/mL
